Measurements of several laboratories.
Each line is one published result; not all experiments were run side by side. Numbers after ± are the reported error.
Organism: Plasmodium falciparum

Clc1ccc2nc(-c3ccccc3)cc(NCCCCN3CCOCC3)c2c1 — EC50 (parasite growth, SYBR Green; DD2; 72 h, drug-resistant strain, blood stage): > 0.4 µM
Cc1cc(Nc2ccc(S(F)(F)(F)(F)F)cc2)n2ncnc2n1 — EC50 (parasite growth, [3H]hypoxanthine uptake; 3D7): ~0.2 µM
Cc1[nH]c2ccccc2c(=O)c1-c1ccc(Oc2ccccc2)cc1 — EC50 (parasite growth, SYBR Green; TM90; 72 h, drug-resistant strain, blood stage): 0.01 µM
COc1ccc2nc(/C=C/c3ccncc3)cc(NCCN(C)C)c2c1 — EC50 (parasite growth, SYBR Green; DD2; 72 h, drug-resistant strain, blood stage): 0.0336 µM
CC[C@H](C)[C@@H](C(=O)O[C@@H](CC(C)C)C(=O)N[C@@H](CC(C)C)C(=O)N[C@@H](C)/C=C/C(=O)N1C(=O)C=C(OC)[C@@H]1C)N(C)C — EC50 (parasite growth, flow cytometry; D10; 75 h, blood stage): 0.7 µM
CN(C)CCNc1cc(/C=C/c2ccc(C(F)(F)F)cc2)nc2ccc(Cl)cc12 — EC50 (parasite growth, SYBR Green; DD2; 72 h, drug-resistant strain, blood stage): ≤ 0.015 µM
Cc1cc(Nc2ccc(S(F)(F)(F)(F)F)cc2)n2nc(C(C)(F)F)nc2n1 — EC50 (parasite growth; Dd2 DHODH C276F clone CL1): 0.36 ± 0.046 µM
CC(C)C[C@@H]1NC(=O)[C@@H](Cc2ccccc2)NC(=O)[C@H](CCCCCC(=O)C2CO2)NC(=O)[C@@H]2CCCCN2C1=O (some centres unmarked) — EC50 (parasite growth, SYBR Green; DD2; drug-resistant strain, blood stage): 0.12 µM
CC[C@H](C)[C@H](NC(=O)[C@H](CO)NC(=O)[C@@H]1CCCN1C(=O)C(C)(C)NC(=O)[C@H](CC(C)C)NC(=O)[C@H](CC(N)=O)NC(=O)C(C)(C)NC(C)=O)C(=O)NC(C)(C)C(=O)N1CCC[C@H]1C(=O)N[C@](C)(CC)C(=O)N[C@@H](CC(C)C)C(=O)NC(C)(C)C(=O)N1CCC[C@H]1C(=O)N[C@H](CO)CC(C)C — EC50 (parasite growth; DD2; drug-resistant strain): 0.52 µM
C[C@H]1[C@@H](CC(=O)NCCCC(=O)N[C@@H](CC(=O)NC(C)(C)C)C(=O)NCCNC(=O)c2cc(-c3ccccc3F)ccc2F)O[C@@H]2O[C@@]3(C)CC[C@H]4[C@H](C)CC[C@@H]1[C@@]24O3 — EC50 (parasite growth; Dd2 beta5 A49S, proteasome inhibitor-resistant, erythrocytic stage; 72 h): > 2.77 µM
CC[C@H](C)[C@H](NC(=O)C(C)(C)NC(=O)[C@H](CCC(N)=O)NC(=O)[C@H](C)NC(=O)C(C)(C)NC(=O)[C@H](C)NC(=O)C(C)(C)NC(=O)[C@H](C)NC(=O)C(C)(C)NC(C)=O)C(=O)NC(C)(C)C(=O)NCC(=O)N[C@@H](CC(C)C)C(=O)NC(C)(C)C(=O)N1CCC[C@H]1C(=O)N[C@H](C(=O)NC(C)(C)C(=O)N[C@](C)(CC)C(=O)N[C@@H](CCC(N)=O)C(=O)N[C@@H](CCC(N)=O)C(=O)N[C@H](CO)Cc1ccccc1)C(C)C — EC50 (parasite growth; DD2; drug-resistant strain): 0.52 µM
C[C@@H]1NC(=O)[C@H](CCCCCC(=O)[C@@H]2CO2)NC(=O)[C@H]2CCCN2C(=O)[C@H](Cc2ccccc2)NC1=O — EC50 (parasite growth, SYBR Green I; 3D7, drug-sensitive; 72 h): 0.01 ± 0.001 µM
CC(C)C[C@@H](/C=C/S(C)(=O)=O)NC(=O)[C@H](CC(C)C)NC(=O)[C@H](Cc1c[nH]c2ccccc12)NC(=O)CN1CCOCC1 — EC50 (asexual blood stage growth; W2; 72 h): 0.015 µM
CC[C@@](C)(NC(=O)[C@@H]1CCCN1C(=O)C(C)(C)NC(=O)[C@@H](NC(=O)[C@H](C)NC(=O)[C@@H]1CCCN1C(=O)C(C)(C)NC(=O)[C@H](CC(C)C)NC(=O)[C@H](CCC(N)=O)NC(=O)C(C)(C)NC(C)=O)C(C)C)C(=O)N[C@@H](CC(C)C)C(=O)NC(C)(C)C(=O)N1CCC[C@H]1C(=O)N[C@H](CO)CC(C)C — EC50 (parasite growth; DD2; drug-resistant strain): 1.32 µM

Some of these lines once more:
Cc1cc(Nc2ccc(S(F)(F)(F)(F)F)cc2)n2ncnc2n1 — EC50 (parasite growth, [3H]hypoxanthine uptake; 3D7): ~0.2 µM
CC[C@@](C)(NC(=O)[C@@H]1CCCN1C(=O)C(C)(C)NC(=O)[C@@H](NC(=O)[C@H](C)NC(=O)[C@@H]1CCCN1C(=O)C(C)(C)NC(=O)[C@H](CC(C)C)NC(=O)[C@H](CCC(N)=O)NC(=O)C(C)(C)NC(C)=O)C(C)C)C(=O)N[C@@H](CC(C)C)C(=O)NC(C)(C)C(=O)N1CCC[C@H]1C(=O)N[C@H](CO)CC(C)C — EC50 (parasite growth; DD2; drug-resistant strain): 1.32 µM
